Assay results collected from several papers.
Compare with care: the assays were run in different laboratories.
Cell line: 786-0

O=C(/C=C/c1ccc2c(c1)C(=O)N(CCCc1ccccc1)CC2)NO
IC50 (cell growth or viability, SRB; 72 h): 3.83 µM

CC(=O)OC[C@@]12CCC[C@@](C)(CO)[C@H]1CC[C@@]13C[C@@H](C[C@H](O)[C@H]12)[C@H](C)C3=O
IC50 (cell growth or viability, MTT): 1.5 µM

COc1cc(CNC(=O)C[C@H](C)CCC=C(C)C)ccc1OCc1cn(-c2ccccc2)nn1
growth (SRB; 10 µM, 48 h): 113%

CC(=O)OC[C@]1(C)CCC[C@]2(C)[C@@H]1CC[C@@]13C[C@@H](C[C@H](O)[C@H]12)[C@H](C)C3=O
IC50 (cell growth or viability, MTT): > 20 µM

COc1cc(CNC(=O)C[C@H](C)CCC=C(C)C)ccc1OCc1cn(-c2ccc(Cl)cc2Cl)nn1
growth (SRB; 10 µM, 48 h): 38.9%

CCC(=C(c1ccc(Cl)cc1)c1ccc(OCCCN(C)C)cc1)c1ccc(OC)cc1
GI50 (cell growth or viability): 0.77 µM

CC(=O)OC[C@]1(C)CCC[C@]2(COC(C)=O)[C@@H]1CC[C@@]13C[C@@H](C[C@H](O)[C@H]12)[C@@H](C)C3=O
IC50 (cell growth or viability, MTT): 4.3 µM

COc1cc(CNC(=O)C[C@H](C)CCC=C(C)C)ccc1OCc1cn(-c2ccc(Br)cc2)nn1
growth (SRB; 10 µM, 48 h): 68.7%

CC(=C(c1ccc(O)cc1)c1ccc(Cl)cc1)c1ccc(Cl)cc1
GI50 (cell growth or viability): 0.66 µM

C=C1C(=O)[C@@]23CC[C@@H]4[C@](C)(COC(C)=O)CCC[C@@]4(CO)[C@@H]2[C@@H](O)C[C@@H]1C3
IC50 (cell growth or viability, MTT): > 20 µM

O=C1Nc2ccccc2/C1=N\Nc1nnc2n1N=C(c1ccc(Cl)cc1)CS2
inhibition (cell growth or viability, SRB; 10 µM): 12%

CC/C=C\C/C=C\C/C=C\C/C=C\C/C=C\C/C=C\CCC(=O)Nc1ccn(C2OC(CO)C(O)C2(F)F)c(=O)n1 (stereo not shown)
TGI (NCI60 screen): 14.2 µM

COc1cc(CNC(=O)C[C@H](C)CCC=C(C)C)ccc1OCc1cn(-c2ccc(F)cc2)nn1
growth (SRB; 10 µM, 48 h): 68.2%
